Measured values gathered from unrelated publications.
± gives the spread as reported.
LYN: Tyrosine-protein kinase Lyn (LYN, Homo sapiens, UniProt P07948)
DDR1: Epithelial discoidin domain-containing receptor 1 (DDR1, Homo sapiens, UniProt Q08345)
SLC6A4: Sodium-dependent serotonin transporter (SLC6A4, Homo sapiens, UniProt P31645)
FGFR1: Fibroblast growth factor receptor 1 (FGFR1, Homo sapiens, UniProt P11362)

`CCOCCNC(=O)N1CCC[C@H](c2n[nH]c(-c3ccccc3)n2)C1` has an IC50 of 31.1 µM (Aromatase (CYP19A1, Homo sapiens, UniProt P11511); enzyme activity, inhibitor, fluorescence).
The IC50 of `COc1ccc2c(c1)C(=C1Nc3ccccc3C1=NOCC(O)CO)C(=O)N2` (stereo not drawn) is reported as 0.0298 µM (LYN; enzyme activity, inhibitor, radiometric).
For `CNC(=O)[C@@H]1Cc2c([nH]c3ccccc23)[C@@H](c2ccc(Cl)cc2Cl)N1`, the IC50 was 0.057 ± 0.01 µM (MEP cytidylyltransferase IspD (Plasmodium falciparum, UniProt Q8I273); enzyme activity, inhibitor, fluorimetric pyrophosphate).
`O=C(Nc1ccc(F)c(OCc2ccncc2)c1)Nc1ccc(Cl)c(C(F)(F)F)c1` has an IC50 of 1.01 µM (DDR1; enzyme activity, inhibitor, mobility shift).
`CCN(CC)CC#CC[C@H](N)C(=O)O` gave an IC50 of 750 µM (collagenase; gelatin hydrolysis, inhibitor).
With `CCOC(=O)c1cnc(Nc2nc3ccccc3o2)nc1-c1ccccc1` the IC50 was 0.124 µM (Grm5 (Rattus norvegicus, UniProt P31424); calcium signal, antagonist).
The IC50 of `CC[C@H](C)[C@H](NC(C)=O)C(=O)N[C@H](CC(=O)N[C@H](C(=O)N[C@@H](C)C(=O)N[C@@H](CCC(N)=O)C(=O)N[C@@H](CCC(=O)O)CC(=O)N[C@@H](CC(C)C)C(=O)N[C@@H](CCCNC(=N)N)C(=O)N[C@@H](CCCNC(=N)N)CC(=O)N[C@H](C(=O)NCC(=O)N[C@@H](CC(=O)O)C(=O)N[C@@H](CCC(=O)O)CC(=O)N[C@@H](Cc1ccccc1)C(=O)N[C@@H](CC(N)=O)C(=O)N[C@@H](C)CC(=O)N[C@@H](Cc1ccc(O)cc1)C(=O)N[C@@H](Cc1ccc(O)cc1)C(N)=O)[C@@H](C)CC)[C@@H](C)CC)Cc1c[nH]c2ccccc12` is reported as 1.01 ± 0.025 µM (BCL2L1 (Homo sapiens, UniProt Q07817); competition SPR; pH 7.4, together with: BimBH3 peptide).
The IC50 of `O=c1c(OCc2ccccc2)c(-c2ccco2)oc2ccccc12` is reported as 0.39 ± 0.14 µM (β-glucosidase; enzyme activity, inhibitor).
`CN(C)CCN(Cc1ccncc1)Cc1c(Cl)cccc1Cl` gave an IC50 of 3.84 µM (SLC6A4; transporter uptake, inhibitor, radiometric).
The IC50 of `C[C@@H](O)[C@H](NC(=O)CP(=O)(O)OC[C@H]1O[C@@H](n2cnc3c(N)ncnc32)[C@H](O)[C@@H]1O)C(=O)O` is reported as 5.6 µM (tsaD/tsaC, with TsaB and TsaE (Escherichia coli, UniProt P05852+P45748); HPLC; pH 7.5, 23 °C, together with: 5 mM ATP).
`CC(NC(=O)c1ccccc1/N=C/c1c(O)ccc2ccccc12)c1ccccc1` (stereo not drawn) has an IC50 of 10 µM (Krev interaction trapped protein 1, FERM domain (KRIT1, Homo sapiens, UniProt O00522); HEG1-KRIT1 FERM interaction, inhibitor, flow cytometry bead).
`CNC(=O)C(Cc1ccc(I)cc1)NC(=O)CNC1CCN(C(=O)OC(C)(C)C)CC1` (stereo not drawn) gave an IC50 of 1.2 µM (DDR1; cell-free assay).
The IC50 of `O=C1NCCc2c(Cc3ccc(Cl)cc3)[nH]c3c(F)ccc1c23` is reported as 0.15 µM (PDE5A (Homo sapiens, UniProt O76074); enzyme activity, inhibitor).
The IC50 of `COc1cc2nccc(Oc3ccc(NC(=S)Nc4ccccc4)c(Cl)c3)c2cc1C(N)=O` is reported as 6.1 µM (FGFR1).
For `CC1(CO)CCCC2(C)C1CCC1(C)c3cocc3CCC12` (stereo not drawn), the IC50 was 0.96 µM (Androgen receptor (AR, Homo sapiens, UniProt P10275); reporter gene, antagonist, luciferase).
`COC(=O)c1ccc(C[S+]([O-])CC(=O)C23CC4CC(CC(C4)C2)C3)o1` (stereo not drawn) gave an IC50 of 0.102 µM (HSD11B1 (Homo sapiens, UniProt P28845); enzyme activity in cells, inhibitor).
With `O=C(NCCCN1CCC(Cc2ccccc2)CC1)c1ccc2ccccc2n1` the IC50 was 0.03 to 50 µM (SLC6A4; transporter uptake).
For `O=C(O)/C=C\c1ccc2occc2c1O[C@@H]1O[C@H](CO)[C@@H](O)[C@H](O)[C@H]1O`, the IC50 was 24.6 µM (SLC22A12 (Homo sapiens, UniProt Q96S37)).
The IC50 of `O=C(Nc1ccc(OC(F)(F)F)cc1)N1CCC(Cc2cccc(Oc3ccc(C(F)(F)F)cn3)c2)CC1` is reported as 1.4 µM (Faah (Mus musculus, UniProt O08914); enzyme activity, inhibitor, fluorescence; mouse tissue homogenate; 5 min preincubation).
For `C[C@H](NC(=O)[C@H](CC(=O)NCC(C)(C)C)NC(=O)C(=O)c1c[nH]c2ccccc12)C(=O)NCc1ccc(F)cc1F`, the IC50 was > 100 µM (Proteasome subunit beta type-10 / Proteasome subunit beta type-3 (Homo sapiens, UniProt P40306+P49720); inhibitor).
`NCc1ccc(NC(=O)c2ccc3ccccc3c2O)cc1` gave an IC50 of 30.3 ± 2.6 µM (TMPRSS11D (Homo sapiens, UniProt O60235); enzyme activity, inhibitor; 15 min preincubation, together with: Boc-VPR-AMC 100 µM).
With `CO[C@H]1CN(c2ccc(C(N)=O)nn2)CC[C@H]1NC(=O)c1[nH]c(C)c(Cl)c1Cl` the IC50 was 0.397 µM (DNA gyrase subunit B (Staphylococcus aureus, UniProt P0A0K8); enzyme activity, inhibitor, ADP detection).
With `NCc1cccc(C2CCN(C(=O)c3cccc(OCC(=O)C4(O)CCC4)c3)CC2)c1` the IC50 was 0.367 µM (Tryptase beta-1 (Homo sapiens, UniProt Q15661); enzyme activity, inhibitor, AMC substrate release).
The IC50 of `CC[C@H](C)[C@H](NC(=O)[C@H](CO)NC(=O)[C@H](Cc1ccc(O)cc1)NC(=O)[C@H](CC(=O)O)NC(=O)[C@H](CO)NC(=O)[C@@H](NC(=O)[C@H](Cc1ccccc1)NC(=O)[C@@H](NC(=O)CNC(=O)[C@H](CCC(=O)O)NC(=O)[C@H](C)NC(=O)[C@@H](N)Cc1ccc(O)cc1)[C@@H](C)O)[C@@H](C)CC)C(=O)N[C@@H](C)C(=O)N[C@@H](CCSC)C(=O)N[C@@H](CC(=O)O)C(=O)N[C@@H](CCCCN)C(=O)N[C@H](C(=O)N[C@@H](CCCNC(=N)N)C(=O)N[C@@H](CCC(N)=O)C(=O)N[C@@H](CCC(N)=O)C(=O)N[C@@H](CC(=O)O)C(=O)N[C@@H](Cc1ccccc1)C(=O)N[C@H](C(=O)N[C@@H](CC(N)=O)C(=O)N[C@@H](Cc1c[nH]c2ccccc12)C(=O)N[C@@H](CC(C)C)C(=O)N[C@@H](CC(C)C)C(=O)N[C@@H](C)C(=O)N[C@@H](CCC(N)=O)C(=O)N[C@@H](CCCNC(=N)N)C(=O)NCC(=O)N[C@@H](CCCCN)C(=O)N[C@@H](CCCCN)C(=O)N[C@@H](CO)C(=O)N[C@@H](CC(=O)O)C(=O)N[C@@H](Cc1c[nH]c2ccccc12)C(=O)N[C@@H](CCCCN)C(=O)N[C@@H](Cc1c[nH]cn1)C(=O)N[C@@H](CC(N)=O)C(=O)N[C@H](C(=O)N[C@H](C(=O)N[C@@H](CCC(N)=O)C(=O)O)[C@@H](C)O)[C@@H](C)CC)C(C)C)[C@@H](C)CC` is reported as 0.002 µM (GIPR (Homo sapiens, UniProt P48546); ligand displacement in cells, radioligand).
`COC(=O)c1cc2c(Oc3ccc(NC(=S)NC4CC4)c(Cl)c3)ccnc2cc1OC` has an IC50 of 2.39 µM (FGFR1).
For `CCNC(=S)NCC`, the IC50 was 17000 ± 2000 µM (Urea transporter 1 (Slc14a1, Rattus norvegicus, UniProt P97689); urea transport, inhibitor; rat erythrocytes; 15 min).
The IC50 of `CC(C)C(C(=O)Nc1ccc(C(=O)NO)cc1)c1ccccc1` (stereo not drawn) is reported as 0.21 µM (HDAC (Lucilia cuprina egg nuclear extract); enzyme activity, inhibitor, fluorometric).
`N=C(N)SCc1cccc(CSC(=N)N)c1` gave an IC50 of > 30 µM (TDO2 (Homo sapiens, UniProt P48775); together with: L-tryptophan 2 mM).
With `COc1cc2nccc(Oc3ccc(NC(=S)N4CCC4)c(Cl)c3)c2cc1C(N)=O` the IC50 was 0.0704 µM (FGFR1).
`Oc1c(C(Nc2nccs2)c2cccc(OCc3ccccc3)c2)ccc2cccnc12` (stereo not drawn) has an IC50 of 3.46 ± 0.06 µM (Genome polyprotein, NS2B-NS3 protease (GP1, West Nile virus, UniProt Q9Q6P4); enzyme activity, inhibitor; 0.1% CHAPS, together with: tetrapeptide substrate).
For `C=CC(=O)N1CCc2ccc(-n3c(=O)ccc4cnc5ccc(-c6cnn(C)c6)cc5c43)cc21`, the IC50 was > 10 µM (LYN; enzyme activity, inhibitor).
With `CCCCCCc1ccc(S(=O)(=O)N2CC2C(=O)N(C)C)cc1` (stereo not drawn) the IC50 was 0.042 µM (P4HB (Homo sapiens, UniProt P07237); enzyme activity, inhibitor, absorbance; pH 7.6).
The IC50 of `CCC1(CC)C[C@@H](NC(=O)Nc2cccc3c(C)nccc23)c2cc(F)ccc2O1` is reported as 0.112 µM (Trpv1 (Rattus norvegicus, UniProt O35433); calcium influx, antagonist, FLIPR; HEK293 expressing rat TRPV1; together with: N-arachidonoyl-dopamine 3 µM).
With `Cc1ccc(CNC(=O)[C@H](CC(C)C)NC(=O)[C@H](CCc2ccccc2)NC(=O)c2cnc(C)cn2)cc1` the IC50 was 0.105 µM (20S proteasome (Plasmodium falciparum, UniProt A0A5K1K7U1+Q8IJT1); β5 activity, inhibitor; together with: Suc-LLVY-AMC, PA28α-activated).
For `COc1cc2nccc(Oc3cc(Cl)c(NC(=S)NC4CC4)cc3F)c2cc1C(N)=O`, the IC50 was 0.713 µM (FGFR1).
For `NCCCC[C@@H](NC(=O)CCCCCNC(=O)c1ccc(-c2ccnc(N)n2)s1)C(=O)NCCCCCC(=O)N[C@H](CCCN=C(N)N)C(=O)N[C@H](CCCN=C(N)N)C(=O)N[C@H](CCCN=C(N)N)C(=O)N[C@H](CCCN=C(N)N)C(=O)N[C@H](CCCN=C(N)N)C(=O)N[C@H](CCCN=C(N)N)C(N)=O`, the IC50 was 0.0107 µM (cGMP-dependent protein kinase 1, isoform alpha (PRKG1, Homo sapiens, UniProt Q13976); inhibitor, fluorescence anisotropy displacement; together with: ARC-1059 probe and cGMP).
`O=C(Nc1ccc(S(=O)(=O)Nc2nccs2)cc1)c1cc(-c2ccco2)nc2ccccc12` gave an IC50 of 0.7 µM (Kpna2, with ChREBP NLS peptide (Mus musculus, UniProt P52293); NLS peptide binding, fluorescence polarization; high-affinity site, together with: ChREBP NLS peptide).
For `COc1cc2nccc(Oc3ccc(NC(=S)NCc4ccc(F)cc4)c(Cl)c3)c2cc1C(N)=O`, the IC50 was 3.61 µM (FGFR1).
For `NC(c1ccccc1)(c1ccccc1)c1ccccc1Cl`, the IC50 was 4 µM (Gap junction alpha-8 protein (Gja8, Mus musculus, UniProt P28236); gap junction current, inhibitor, dual whole-cell voltage clamp; transfected mouse N2a cell pairs).
